Published values from different studies.
Every numbered part comes from another study and shows a few of its results, in no order.

Block 1 — technique: protein binding microarray; molecule type: double-stranded DNA, one strand shown; matrix: in vitro; tested at: not given; baseline: not given; direction: higher = stronger binding; quantity: E-score
Target: Histone acetyltransferase KAT6A, winged helix 2, GST fusion (KAT6A, Homo sapiens, UniProt Q92794, residues 85-181)
Notes: 8-mer, flanks averaged, mean of 2 arrays, mostly near background
Residues (chain): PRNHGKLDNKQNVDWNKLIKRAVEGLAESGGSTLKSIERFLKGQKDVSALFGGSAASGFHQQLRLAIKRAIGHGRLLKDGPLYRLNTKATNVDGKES
CTCTCGAC: 0.0866
CCCGGTCA: 0.0261
ATCACGCG: -0.0522
ATGCATTG: -0.083
CGCGACGC: 0.164
AGTGGCTG: 0.0437
GGCTAATA: 0.0858
GGAGATAA: 0.0475
ATAGCCGC: -0.0263
GACAACCA: -0.0384
ATAGCTCC: -0.174
GCCCCTAC: -0.0406
AATAATAA: 0.166
ACCCCCTG: 0.0289
CATGTGAC: -0.197
CCACCGTC: -0.115
CACATAAG: -0.129
GAATCAGC: -0.0434
GGAGCAAC: -0.0129

Block 2 — technique: protein-binding microarray; molecule type: double-stranded DNA, one strand shown; matrix: in vitro; tested at: 250 nM; notes: 60-bp whole probe; with: salmon DNA 0.4 mg/ml; baseline: random background probes; direction: higher = stronger binding; quantity: log fluorescence; all sequences stand within: GCCTAGCAC … GTCTTGATTCGCTTGACGCTGCTG
Target: Interferon regulatory factor 7, full length, phosphomimetic (IRF7, Homo sapiens, UniProt Q92985, residues 1-503, S101K/S471D/S472D/S475D/S476D/S477D/S483D/S484D/S487D)
Target sequence (chain): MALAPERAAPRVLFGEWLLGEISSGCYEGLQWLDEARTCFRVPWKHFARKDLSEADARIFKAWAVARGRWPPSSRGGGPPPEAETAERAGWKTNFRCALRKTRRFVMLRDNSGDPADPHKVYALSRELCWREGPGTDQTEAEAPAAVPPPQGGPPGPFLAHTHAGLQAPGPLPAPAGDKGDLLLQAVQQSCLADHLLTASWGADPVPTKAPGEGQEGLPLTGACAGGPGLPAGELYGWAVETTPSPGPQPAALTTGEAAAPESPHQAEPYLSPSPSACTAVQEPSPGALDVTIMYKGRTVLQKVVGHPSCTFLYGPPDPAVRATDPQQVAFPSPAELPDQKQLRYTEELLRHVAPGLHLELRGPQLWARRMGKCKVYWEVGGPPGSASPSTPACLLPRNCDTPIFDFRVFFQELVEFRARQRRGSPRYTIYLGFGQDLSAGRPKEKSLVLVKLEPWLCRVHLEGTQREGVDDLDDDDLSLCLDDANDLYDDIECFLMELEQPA
GACGGACTGGGGTATCCGGACGTGCTA: -0.746 z-score
TTAGGTTTCGGGCTTCGGTTAGTGCTA: 4.16 z-score
TCACGTTTACATTTTCCACTGTGCTAG: 0.804 z-score
TTAGGTCTCCTACTCCTTTAGTGCTAG: -0.036 z-score
TTAGATATCGGCACTGGATTAGTGCTA: -0.113 z-score
CCTGGTTTTACTTTCTATCTGTGCTAG: 2.16 z-score
CCATTTTTCTAGTCCAGACTGTGCTAG: 1.75 z-score
GTCGATTCCAGTTTCGAGACGTGCTAG: 5.92 z-score
TTAGGTCTCCGTTTCGGTTAGTGCTAG: 4.41 z-score
TCAAATCTTGAGTTAGAACTGTGCTAG: 0.0172 z-score
GACGGTCTCGGTATCGGCACGTGCTAG: 1.97 z-score
GACGCTTTCGACTTTCGGGACGTGCTA: 2.38 z-score
TTAGGTCTGGGGTATCGGTTAGTGCTA: 0.27 z-score
GACCATTTCAGTTTCGAGACGTGCTAG: 5.43 z-score
GACGGTTTCCTTCTCCAGACGTGCTAG: 2.63 z-score
GACGACTTCAGTCTCGAGACGTGCTAG: 0.371 z-score
CTAGGTATCCTTATCCTTTAGTGCTAG: 0.899 z-score
TTCGGTTTCGGTATCGGTTAGTGCTAG: 10.9 z-score
GACGAACTGAGTATCAAGACGTGCTAG: -0.281 z-score
GACGGTCTCCTTATCCTGACGTGCTAG: 0.25 z-score

Block 3 — technique: RNA Bind-n-Seq; molecule type: RNA; matrix: in vitro; tested at: 365 nM; baseline: no-protein control; direction: higher = stronger binding; quantity: RBNS enrichment (R)
Target: RNA binding protein fox-1 homolog 2, RRM domain, GST-SBP tag (RBFOX2, Homo sapiens, UniProt O43251-10, residues 100-194)
Notes: natural RNA segment, single round, ends assumed
All sequences stand within: GGGAGUUCUACAGUCCGACGAUC … UGGAAUUCUCGGGUGCCAA
Target sequence (chain): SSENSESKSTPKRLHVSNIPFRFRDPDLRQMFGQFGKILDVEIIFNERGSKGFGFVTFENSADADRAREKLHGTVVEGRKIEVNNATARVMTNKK
GGAUGCAUUUGGAUGUACAGACUGACUGGGGGACUGUAUUGCGAUGAUGAUUGGUGUAGAAACGUAUGGGUCUGGGUGGCCUUUUACAUCUUGCCUACCAUUGCAUGAAA: 2.24
AUCAGCACUGUGAAAAUGAACCUAUACAGUAAAUUGGUACCAGUAGAGUGGGGCGCUGCUGUAAAUACCCAAAAAUGUGGAAGCAACUUUGGAACUGGGUAACAGGCAGA: 0.763
CGUUUGGCGCUGUUGUAUGGUGUGAUUGUCAGUGUAUGGUGUCACUUCCUAUAGCCAGCCAGCAUACUUUGCCUUCCCCUAUAGCACUUAGCUGGGCAUUACUUUAUUAU: 0.555
CUAGACCGUCUCUGCACAAAAGUUUAAAAACUGAACCGUAUGCAGAGUUCCGAAGCAAGUCAAGUUUGUAAAUGCAUACCUAAAAAUAUUUAAUAAACGAUGCAGAAUCC: 0.688
GGCUGUUUCAAAAAAAUCUAUUGACUUUUCAAUAAAUCAGCUGCAAUCCAUUUAUUUCAUUUACAAAAGAUUUAUUGUAAGCAUCUCAAUCUUGGUUUGUCAGUUUAUCU: 0.61
AAUGUAAUGUUUUUACAGCAAUGAUAUGAAAUAUAUUUUAUAAGGAAUAAAAUGGUACAUUGUCUGACUUAGUGUGUGCCUCUCUACUGAUUACUGUCCUGUUCCUACCA: 0.836
AAUUGUUGUCUUAACUAUGACUAGACAUGUUAUACAGCCAUUUAUCUUGUACAACUGAGAAGAAUCAUACUUUGACCUACCUUGUAGAGAUGUGAGGAUUUAGAUGUUUG: 0.815
AUAGUCAGGCUGCAAAUUUCCAAACUUUUAUGCUUUGCUUCCCUUAUUUAUAAGGGAAUGCCUUUAAAAGCACCCAAGUCACCUGUUGAACACUUUGCUGCUUAGAAAUU: 0.266
ACAACCAUGUCUCAGACUCAAGAGCUCCGUCAACAGAGCCUCGGAACUGGCCACUCAAUACAGUCUCUCCCUCAAUAGCACAGAAGGUCCUUGAGCUCCCAGGCCGCAGC: 0.811
AAAUUCACAUGCAGGAUUUACUUUAUACUGUAGAAUACUGACUUUCAUGAUGACAACUUGAUUUAUGCAUGAAUAUCAACAGUAUUUCCAUAUAGUAAAAUAACAUUUCU: 2.66
AGUACCUAGAAACACACAAGGCUGCCCAGCCAAAUCUUAAUGUAAAGUAGCUAGAGCCAUGGAAGUACAGUAUGAAUUAAAAAGAAAAAAGUAUUGAACUACAAUAAUAA: 0.363
AAACUCCUUGGGAGGAGAGAGGGCUUCUUUUGGUUUCCCUGGAGUGAGACAGCCAGGUGUCUUUCUUUUGCGGGGGGACACUUCAGACCCAUCAAUAUGGAAUUUUGGGA: 0.605

Block 4 — technique: aptamer microarray, sandwich; molecule type: DNA with 2'F-ANA; matrix: in vitro; tested at: 200 nM; with: Cy3 exosite-II aptamer, 400 nM; direction: higher = stronger binding; quantity: mean fluorescence intensity; sequence: GGTTGGTGTGGTTGG
Target: Prothrombin, mature alpha-thrombin (F2, Homo sapiens, UniProt P00734)
Notes: whole 15-mer aptamer, many near background
2'F-ANA at 1 4 5 7 11 14 15: 72.9 a.u.
2'F-ANA at 1 2 3 4 6 8 9 12 13 15: 222 a.u.
2'F-ANA at 5 6 8 10: 119 a.u.
2'F-ANA at 1 2 3 4 5 6 7 8 9 10 11: 82 a.u.
2'F-ANA at 1 2 9 15: 169 a.u.
2'F-ANA at 1 3 4 7 9 10 11 12 14: 53.3 a.u.
2'F-ANA at 2 3 4 5 6 7 9 13 15: 59.5 a.u.
2'F-ANA at 1 4 6 7 8 9 11 13 15: 81.7 a.u.
2'F-ANA at 2 3 4 7 9 10 11 12 14 15: 204 a.u.
2'F-ANA at 7 8 9 11 12 13 15: 754 a.u.
2'F-ANA at 1 2 3 4 6 7 10 11 12 13 15: 60.6 a.u.
2'F-ANA at 1 3 4 5 7 8 9 11 12 13: 72.2 a.u.
2'F-ANA at 1 2 3 5 10 11 14 15: 47.8 a.u.
2'F-ANA at 2 3 4 7 8 9 11 12 13: 616 a.u.
2'F-ANA at 1 2 3 4 6 8 9 10 11 12 13: 58.9 a.u.
2'F-ANA at 3 4 5 6 8 10 11 12: 54.5 a.u.
2'F-ANA at 4 8 9 10 12 13 15: 88.2 a.u.
2'F-ANA at 1 3 4 5 6 7 10 12 13 14: 47.6 a.u.
2'F-ANA at 2 5 6 9 10 11 12 13 15: 50.3 a.u.

Block 5 — target: UBE2E1 UBC core domain (UniProt P51965); technique: yeast two-hybrid; matrix: yeast; notes: mostly zero background; baseline: not given; direction: higher = stronger interaction; quantity: lacZ reporter activity
UniProt P51965, sequence (whole entry, looked up): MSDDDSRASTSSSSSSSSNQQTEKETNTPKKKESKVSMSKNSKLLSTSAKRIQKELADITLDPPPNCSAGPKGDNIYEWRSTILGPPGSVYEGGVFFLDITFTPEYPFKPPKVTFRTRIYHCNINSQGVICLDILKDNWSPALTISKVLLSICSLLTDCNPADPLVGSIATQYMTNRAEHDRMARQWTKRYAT
B1: RNF186 RING domain (UniProt Q9NXI6); chain HSGSTECDLECLVCREPYSCPRLPKLLACQHAFCAICLKLLLCVQDNTWSITCPLCRKVTAVPGGLI
B2: ZMYND11 RING domain (UniProt Q15326); chain DEIDWETENHDWYCFECHLPGEVLICDLCFRVYHSKCLSDEFRLRDSSSPWQCPVCRSIKKKNTNKQEM
B3: ARIH2 RING domain (UniProt O95376); chain HVPTSHPPHHCAVCMQFVRKENLLSLACQHQFCRSCWEQHCSVLVKDGVGVGVSCMAQDCPLRTPEDFVF
B4: MARCHF1 RING domain (UniProt Q8TCQ1); chain TAPRSQSRLSVCPSTQDICRICHCEGDEESPLITPCRCTGTLRFVHQSCLHQWIKSSDTRCCELCKYDFIMETKLKPLRKWE
B5: RNF6 RING domain (UniProt Q9Y252); chain NSIDSELGKICSVCISDYVTGNKLRQLPCMHEFHIHCIDRWLSENCTCPICRQPVLGSNIAN
B6: BFAR RING domain (UniProt Q9NZS9); chain GPQISVSEFSCHCCYDILVNPTTLNCGHSFCRHCLALWWASSKKTECPECREKWEGFPKVS
B7: VPS8 RING domain (UniProt Q8N3P4); chain TRGLNPKQDYCSICLQQYKRRQEMADEIIVFSCGHLYHSFCLQNKECTVEFEGQTRWTCYKCSSSNKVGKLSE
B8: ZNRF4 RING domain (UniProt Q8WWF5); chain VRTFTWHNDLCAICLDEYEEGDQLKILPCSHTYHCKCIDPWFSQAPRRSCPVCKQSVAATEDSF
B9: MID2 RING domain (UniProt Q9UJV3); chain KMETLESELTCPICLELFEDPLLLPCAHSLCFSCAHRILVSSCSSGESIEPITAFQCPTCRYVISLNHRGL
B10: TRIM41 RING domain (UniProt Q8WV44); chain PVQTLQEEAVCAICLDYFTDPVSIGCGHNFCRVCVTQLWGGEDEEDRDELDREEEEEDGEEE
LVKDFNPYITCYICKGYLIKPTTVTECLHTFCKTCIVQHFEDSNDCPRCGNQVHETNPLE (PCGF5 RING domain (UniProt Q86SE9)): 0
B1 (RNF186 RING domain): 0
B2 (ZMYND11 RING domain): 0
ASEEEFQFLRCQQCQAEAKCPKLLPCLHTLCSGCLEASGMQCPICQAPWPLGADTP (PML RING domain (UniProt P29590)): 0
B3 (ARIH2 RING domain): 0
B4 (MARCHF1 RING domain): 0
EIKEYKARLTCPCCNTRKKDAVLTKCFHVFCFECVRGRYEARQRKCPKCNAAFGAHDFHR (RNF40 RING domain (UniProt O75150)): 0
B5 (RNF6 RING domain): 0
B6 (BFAR RING domain): 0
ASPKIFQKTKCSICNSALELPSVHFLCGHSFHQHCFESYSESDADCPTCLPENRKVMDMI (VPS11 RING domain (UniProt Q9H270)): 0
B7 (VPS8 RING domain): 0
FDPPLESKYECPICLMALREAVQTPCGHRFCKACIIKSIRDAGHKCPVDNEILLENQLFP (TRAF6 RING domain (UniProt Q9Y4K3)): 0
B8 (ZNRF4 RING domain): 12500
B9 (MID2 RING domain): 0
B10 (TRIM41 RING domain): 0

Block 6 — technique: universal PBM; molecule type: double-stranded DNA, one strand shown; matrix: in vitro; tested at: 600 nM; direction: higher = stronger binding; quantity: E-score
Target: Sal-like protein 4, full length isoform A (SALL4, Homo sapiens, UniProt Q9UJQ4, residues 1-1053)
UniProt Q9UJQ4, sequence (whole entry, looked up): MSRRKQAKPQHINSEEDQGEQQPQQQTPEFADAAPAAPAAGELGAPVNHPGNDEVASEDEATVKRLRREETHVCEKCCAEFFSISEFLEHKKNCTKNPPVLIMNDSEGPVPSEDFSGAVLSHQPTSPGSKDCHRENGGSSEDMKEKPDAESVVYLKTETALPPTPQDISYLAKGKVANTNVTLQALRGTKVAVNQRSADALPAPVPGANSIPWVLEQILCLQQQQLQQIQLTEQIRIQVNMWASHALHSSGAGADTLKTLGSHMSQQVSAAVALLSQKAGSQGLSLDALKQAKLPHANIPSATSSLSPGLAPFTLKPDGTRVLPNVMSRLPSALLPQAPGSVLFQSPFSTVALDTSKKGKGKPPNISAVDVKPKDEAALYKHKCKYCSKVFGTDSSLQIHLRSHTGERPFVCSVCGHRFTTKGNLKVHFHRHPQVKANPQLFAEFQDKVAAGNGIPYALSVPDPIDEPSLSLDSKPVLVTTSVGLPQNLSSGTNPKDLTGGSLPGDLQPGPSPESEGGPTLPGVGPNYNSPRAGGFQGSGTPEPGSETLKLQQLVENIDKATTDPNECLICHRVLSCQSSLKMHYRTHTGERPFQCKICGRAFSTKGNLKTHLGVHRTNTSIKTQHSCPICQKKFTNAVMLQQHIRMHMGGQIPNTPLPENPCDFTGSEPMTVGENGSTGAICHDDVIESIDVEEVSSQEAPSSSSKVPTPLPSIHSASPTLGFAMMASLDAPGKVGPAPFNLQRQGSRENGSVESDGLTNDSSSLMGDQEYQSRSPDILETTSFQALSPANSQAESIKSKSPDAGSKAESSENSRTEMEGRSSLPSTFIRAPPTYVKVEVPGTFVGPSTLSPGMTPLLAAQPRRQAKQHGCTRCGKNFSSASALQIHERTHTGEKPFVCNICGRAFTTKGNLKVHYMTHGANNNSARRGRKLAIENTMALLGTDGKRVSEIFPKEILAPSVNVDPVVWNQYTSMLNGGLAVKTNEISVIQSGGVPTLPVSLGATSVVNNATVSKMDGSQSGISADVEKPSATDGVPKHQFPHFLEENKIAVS
Notes: 8-mer, flanks averaged, mean of replicates
AAGCTATC: 0.133
TACCCTGA: -0.093
ATCGACGA: -0.0497
GCTCTGTA: 0.0183
AGAATCCT: -0.0668
GATTGGGA: -0.0508
CCTAAGCG: -0.279
GAGAAAAA: 0.17
CTGTGGTC: -0.184
AGGATTGA: 0.204
TTCTTAAA: 0.149
GAGGCAAA: 0.057
ACAGATAG: 0.0772
CGGGGTCC: -0.413
ACCATCCC: -0.0484
AGTTATGG: 0.347
ACGCAAGT: -0.0992
CTCGAATC: -0.0889
AGTTCGGG: -0.076
ACGCCACT: -0.208

Some of these lines once more (block 1):
ATGCATTG: -0.083
CGCGACGC: 0.164
AGTGGCTG: 0.0437
GGCTAATA: 0.0858
GGAGATAA: 0.0475
ATAGCCGC: -0.0263
GACAACCA: -0.0384
